# Results from different studies.
# Several values in a cell are separate wells, animals, samples, runs or records. ± marks the error that the study gave.
# Target: Receptor tyrosine-protein kinase erbB-2 (ERBB2, Homo sapiens, UniProt P04626)
SMILES,read-out,action,technique,together with,measurement,result
C=CC(=O)N1CCc2ccc(-n3c(=O)ccc4cnc5ccc(-c6cnn(C)c6)cc5c43)cc21,enzyme activity,inhibitor,,,IC50,8530 nM
Cc1ccc2oc(-c3c4c(N)n[nH]c(=O)c4nn3-c3ccc(NC(=O)/C=C/CN(C)C)cc3)c(C)c2c1,enzyme activity,inhibitor,ELISA,,IC50,> 1000 nM
Cc1cc(N2CCN(C(=O)CN3CCN(c4ccccc4)CC3)CC2)n2ncnc2n1,,inhibitor,,,IC50,210 nM
CN(C1COC1)C(C)(C)/C=C(\C#N)C(=O)N1CCC[C@H]1Cn1nc(-c2ccc(Oc3ccccc3)cc2F)c2c(N)ncnc21,enzyme activity,inhibitor,,,IC50,> 3000 nM
C#Cc1cccc(Nc2ncnc3cc(OC)c(OCCCN4CCOCC4)cc23)c1,kinase activity,inhibitor,,ATP 80.8 µM,IC50,90.8 nM and 90 nM
NS(=O)(=O)c1ccc(-n2c(SCC(=O)Nc3ccccc3F)nc3cc4ccccc4cc3c2=O)cc1,kinase activity,inhibitor,,,IC50,69 ± 15 nM
CCN1CCC2(CC1)C/C(=N\NC(=O)Nc1ccccc1)c1ccccc1O2,enzyme activity,inhibitor,,,IC50,210 nM
COc1ccc(-c2oc3ncnc(NCc4ccccc4)c3c2-c2ccc(OC)cc2)cc1,binding,,competition with immobilised ligand,,Kd,7000 nM
Cc1ccc(-c2nn(-c3ccc(S(C)(=O)=O)cc3)cc2/C=N/N=C2/NC(=O)CS2)cc1,enzyme activity,inhibitor,ATP luminescence,,IC50,32 nM
COc1ccc(NC(=O)N/N=C2\CC3(CCN(C)CC3)Oc3ccccc32)cc1,enzyme activity,inhibitor,,,IC50,85 nM

# For quick reference, copied from above:
SMILES,read-out,action,technique,together with,measurement,result
COc1ccc(-c2oc3ncnc(NCc4ccccc4)c3c2-c2ccc(OC)cc2)cc1,binding,,competition with immobilised ligand,,Kd,7000 nM
